# Results gathered from unrelated publications.
# Protocols differ between the studies behind these lines. Several values in a cell are separate wells, animals, samples, runs or records. Numbers after ± are the reported error.
# UniProt Q8TDU6, sequence (whole entry, looked up): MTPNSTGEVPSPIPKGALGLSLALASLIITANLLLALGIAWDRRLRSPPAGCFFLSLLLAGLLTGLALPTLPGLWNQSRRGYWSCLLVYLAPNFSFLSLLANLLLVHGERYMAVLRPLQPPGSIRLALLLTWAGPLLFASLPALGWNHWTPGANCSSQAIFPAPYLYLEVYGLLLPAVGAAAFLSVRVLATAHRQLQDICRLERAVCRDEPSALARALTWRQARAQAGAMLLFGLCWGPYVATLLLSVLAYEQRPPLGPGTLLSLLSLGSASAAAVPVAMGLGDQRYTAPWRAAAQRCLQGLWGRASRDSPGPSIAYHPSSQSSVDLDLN
Compound,tested on,assay,system,setting,scale,endpoint,result
CC[C@H](C)[C@@H]1NC(=O)[C@@H]2CCCN2C(=O)[C@H](CC(C)C)NC(=O)[C@H](CC(C)C)NC(=O)CNC(=O)[C@@H](NC(=O)[C@@H](NC(=O)[C@H](CC(=O)O)NC(=O)CNC(=O)[C@@H](NC(=O)[C@H](C)NC(=O)CNC(=O)[C@H](CCCCN)NC(=O)[C@H](CC(C)C)NC(=O)[C@H](CC(C)C)NC(=O)[C@H](CCCCN)NC(=O)CNC(=O)[C@@H](NC(=O)[C@@H](N)CC(C)C)C(C)C)C(C)C)C(C)C)CSSC[C@@H](C(=O)O)NC1=O,,"RNA-seq, refers to: Col7a1","mouse, traumatic brain injury model, frontal cortex and hippocampus",dose not given,baseline: TBI alone,log2 fold change,-1.81
CC(C)=CCc1c(O)cc(O)cc1-c1cc2ccc(O)c(CC=C(C)C)c2o1,3T3,"cell growth, MTT",,"1.8 µg/mL, 48 h",,cell survival,92.7 ± 1.4%
CC[C@H](C)[C@H](NC(=O)[C@H](Cc1ccccc1)NC(=O)[C@H](CCC(=O)O)NC(=O)[C@H](CCCNC(=N)N)NC(=O)[C@H](C)NC(=O)[C@H](C)NC(=O)[C@H](CCC(N)=O)NC(=O)[C@H](CCC(=O)O)NC(=O)[C@H](CCC(=O)O)NC(=O)[C@H](CC(C)C)NC(=O)[C@H](Cc1ccc(O)cc1)NC(=O)[C@H](CO)NC(=O)[C@H](CO)NC(=O)[C@@H](NC(=O)[C@H](CC(=O)O)NC(=O)[C@H](CO)NC(=O)[C@@H](NC(=O)[C@H](Cc1ccccc1)NC(=O)[C@@H](NC(=O)CNC(=O)[C@H](CCC(=O)O)NC(=O)[C@H](C)NC(=O)CCc1c[nH]cn1)[C@@H](C)O)[C@@H](C)O)C(C)C)C(=O)N[C@@H](C)C(=O)N[C@@H](Cc1c[nH]c2ccccc12)C(=O)N[C@@H](CC(C)C)C(=O)N[C@H](C(=O)N[C@@H](CCCNC(=N)N)C(=O)NCC(=O)N[C@@H](CCCNC(=N)N)C(=O)N[C@@H](CCCCNC(=O)COCCOCCNC(=O)COCCOCCNC(=O)CC[C@H](NC(=O)CCCCCCCCCCCCCCCCC(=O)O)C(=O)O)C(=O)NCC(=O)NCC(=O)N[C@@H](CO)C(=O)N[C@@H](CCCCNc1c(NCCCCCN(O)C(=O)CCC(=O)NCCCCCN(O)C(=O)CCC(=O)NCCCCCN(O)C(C)=O)c(=O)c1=O)C(=O)O)C(C)C [zirconium-89 labelled],,,"rat, lung","iv, 3 nmol/kg, 24 h, ex vivo",,tissue uptake,1.49 %ID/g
CO[C@H]1C[C@@H]2CC[C@@H](C)[C@@](O)(O2)C(=O)C(=O)N2CCCC[C@H]2C(=O)O[C@H]([C@H](C)C[C@@H]2CC[C@@H](OC(=O)NCCOCCOCCOCCOCCOCCOCCOCCOCCC(=O)N3CCc4cc(Cn5nc(-c6ccc7oc(N)nc7c6)c6c(N)ncnc65)ccc4C3)[C@H](OC)C2)C[C@@H](O)[C@H](C)/C=C(\C)[C@@H](O)[C@@H](OC)C(=O)[C@H](C)C[C@H](C)/C=C/C=C/C=C/1C,,phase 1 dose escalation,advanced solid tumour patients,"intravenous, 8 mg weekly, grade ≥3",,any TRAE incidence,31.3%
CN1CCN(c2cc(-c3ccncc3)c(-c3ccc4ccccc4c3)nn2)CC1,"G-protein coupled bile acid receptor 1 (GPBAR1, Homo sapiens, UniProt Q8TDU6)","agonist, FLIPR",,12.5 µM,,activation,5.6%
COc1ccc([C@H]2c3[nH]c4ccc(Cl)cc4c3CCN2C(=O)Oc2ccc(Cl)cc2)cc1,CD19+ B cells with PBMC,"cytokine secretion, refers to: TNF-α",,"0.1 µM, 72 h, BioMAP BT system",,inhibition,66%
COc1ccc2c(c1)CC[C@@H]1[C@@H]2CC[C@]2(C)[C@@H](NCCCCCCN3C(=O)C=CC3=O)CC[C@@H]12,N2a,"fluorescence signal increase, inhibitor",,"300 nM, added: ionomycin 2.5 µM",,effect on signal,inhibited
C=C1[C@@H](O)[C@@H]2O[C@]3(CC[C@H](/C=C/[C@@H](C)[C@@H]4CC(C)=C[C@@]5(O[C@H](C[C@@](C)(O)C(=O)O)CC[C@H]5O)O4)O3)CC[C@H]2O[C@@H]1[C@@H](O)C[C@H](C)[C@H]1O[C@@]2(CCCCO2)CC[C@H]1C,RPE-1 hTERT TP53-/- Cas9 cells,,,"12 days, knockout screen",,LD20,2 nM
COc1cccc2c1C(=O)c1c(O)c3c(c(O)c1C2=O)C[C@@](O)(C(=O)CO)C[C@@H]3O[C@H]1C[C@H](NC(=O)[C@@H]2CCCN2C(=O)CNC(=O)[C@H](CC(C)C)NC(=O)[C@H](C)NC(=O)CP(=O)(O)O)[C@H](O)[C@H](C)O1,,,"healthy mice, plasma","intravenous, 94.4 mg/kg, extrapolated to time zero",,Cmax,701 µM
C[C@]1(CO)Cc2ncn(-c3ccc(C#N)c(Cl)c3)c2C(=O)O1,,,"human, plasma","80 mg single dose, geometric mean",,Cmax,2.87 µM
CCCCC1(CCCC)CN(c2ccccc2)c2cc(SC)c(OCC(=O)N[C@@H](C(=O)NCC(=O)O)c3ccccc3)cc2S(=O)(=O)C1,,refers to: LDL cholesterol,"human, serum","20 mg once daily, day 9",,serum LDL-C,68.8 mg/dL
COc1c(C)c2c(c(O)c1C/C=C(\C)CCC(=O)O)C(=O)OC2,A2780,cell proliferation,,,,IC50,0.0646 µM
Cn1cc2cc(C(F)(F)c3nnc4ccc(-c5cnn(C6CC6)c5)nn34)c(F)cc2n1,MKN-45,annexin V/PI flow cytometry,,"200 nM, 48 h",,early apoptotic cells,14.9% and 21.6% and 15.2%
CC(C)N1CCC(NC2CCN(c3cccc(-c4cc5cc(F)ccc5[nH]4)c3)CC2)CC1,SNB-19,,,NCI60 CNS cancer panel,,TGI,3.48 µM
Cn1cc(-c2ccc(-c3cncc(Cl)c3N3CCC4(CCNC4=O)CC3)cc2)cn1,COLO 205,"gene expression, microarray, refers to: BIRC5 mRNA",,"concentration not given, 2 h",baseline: untreated cells,log2 fold change,-2.41
COc1cc(CCC[P+](c2ccccc2)(c2ccccc2)c2ccccc2)c(OC)c2c1OCO2.[I-],Hs-578T,SRB,,,,TGI,-5.07 log M
COc1ccc2c(c1)[nH]c1c(C)nccc12,DU-145,"bisulfite pyrosequencing, refers to: RASSF1A promoter CpG site 25",,concentration not given,baseline: vehicle,methylation reduction,0%
CCN(CC)c1ccc(C=NNC(=O)CSc2nc3ccccc3c(=O)n2Cc2ccc(S(N)(=O)=O)cc2)c(O)c1,UACC-62,NCI five-dose screen,,,,CC50,> 100 µM
CC(C)C[C@H](NC(=O)[C@H](CCc1ccccc1)NC(=O)CN1CCOCC1)C(=O)N[C@@H](Cc1ccccc1)C(=O)N[C@@H](CC(C)C)C(=O)[C@@]1(C)CO1,patient normal conditionally reprogrammed cells,"RNA-seq, refers to: IL36B mRNA",human,concentration not given,baseline: DMSO,fold change,-3890
O=C1CCP(=S)(c2ccccc2)CC1,PC-3,trypan blue,,"IC50, 72 h",baseline: untreated,reduction of cell number,98%
COc1ccc(-n2nc(C(C)=O)s/c2=N\N=C(/C)c2ccc(NC(C)=O)cc2)cc1,MCF7,,,0.156 µM,,viability,19.3%
O=C(c1cc(-n2sc3ncccc3c2=O)ccc1Cl)N1CCOCC1,HIV-infected PBMCs,refers to: HLA-A2,,"1.0 µM, two donors",,MHC-I surface recovery,15.9 ± 5.3%
COc1cc2c(Oc3ccc4[nH]c(C)cc4c3F)ccnc2cc1OCC1(N)CC1,,,paediatric recurrent refractory sarcoma,8 mg,,grade 1 or 2 Anorexia,0%
O=S(=O)(c1ccc(O)cc1)c1ccc(O)cc1,HepG2 spheroids,Hoechst flow cytometry,,"10 µM, 96 h",,G1 phase cells,72.3 ± 3.48%
C/C=C(/C)C(=O)O[C@H]1C(C)=C2[C@H]([C@@H]1OC(=O)CCCCCCC)[C@@](C)(OC(C)=O)C[C@H](OC(=O)CCC)[C@@]1(O)[C@H]2OC(=O)[C@@]1(C)O,HEK-293T,"RNA-seq GSEA, refers to: Hallmark unfolded protein response",,"500 nM, 6 h",direction not given,normalized enrichment score,2.9
CCN(CC)CCOC(=O)C(O)(c1ccccc1)c1ccccc1,primary rat hippocampal/cortical neuron-glia cultures,,,"1 µM, added: 1 µM α-synuclein oligomers",,reversal of trafficking deficit,-16.2%
Oc1ccc(C(c2ccc(O)cc2)(C(F)(F)F)C(F)(F)F)cc1,HepG2 spheroids,Hoechst flow cytometry,,"10 µM, 24 h",,G1 phase cells,70.7 ± 5.6%
CC[C@H](C)[C@H](NC(=O)[C@H](C)NC(=O)[C@H](CCCCN)NC(=O)[C@H](CC(C)C)NC(=O)[C@H](C)NC(=O)[C@@H](NC(=O)[C@H](Cc1c[nH]cn1)NC(=O)[C@H](CC(C)C)NC(=O)[C@@H](NC(=O)[C@@H](NC(=O)[C@H](CCCCN)NC(=O)[C@H](C)NC(=O)[C@H](C)NC(=O)[C@H](CO)NC(=O)[C@H](CCCCN)NC(=O)[C@H](Cc1ccccc1)NC(=O)[C@@H](NC(=O)[C@H](CCCCN)NC(=O)[C@H](CC(C)C)NC(=O)[C@H](Cc1ccccc1)NC(=O)[C@H](CO)NC(=O)[C@H](CCCCN)NC(=O)[C@H](Cc1c[nH]c2ccccc12)NC(=O)[C@H](CCCCN)NC(C)=O)[C@@H](C)O)[C@@H](C)O)C(C)C)[C@@H](C)O)C(=O)N[C@@H](CO)C(=O)N[C@@H](CO)C(N)=O,Pseudomonas aeruginosa,,IPM-R,81 strains,,MIC90,16 µg/mL
Oc1cc(O)cc(-c2cc3ccc(O)cc3o2)c1,MCF7,"cell growth, MTT",,"100 µg/mL, 48 h",,cell survival,43.25 ± 0.34%
Cc1cccc(-c2cccc(C)n2)n1.Cc1cccc(-c2cccc(C)n2)n1.F[P-](F)(F)(F)(F)F.F[P-](F)(F)(F)(F)F.[Ru+2].c1ccc2cc(-c3nc4c5cccnc5c5ncccc5c4[nH]3)ccc2c1,SK-MEL-28,,,"1% O2, added: blue light 453 nm, 100 J/cm2",baseline: dark over light EC50,phototoxicity index,1
Nc1ncnc2c1ncn2[C@@H]1O[C@@H]2COP(=O)(O)O[C@H]3[C@@H](O)[C@H](n4cnc5c(=O)[nH]cnc54)O[C@@H]3COP(=O)(O)O[C@H]2[C@H]1O,HFF-1,"RNA sequencing, refers to: Reactome R-HSA-1169410",,upregulated pathway,baseline: Zika virus alone,pathway fold enrichment,6.97
C[C@H]1CN(c2n[nH]c3nc(N[C@H]4CC[C@H](NS(=O)(=O)CCC(F)(F)F)CC4)ncc23)CCO1,"Small ribosomal subunit protein uS3 (Homo sapiens, UniProt P23396)","Kinobeads competition, refers to: RPS3",,"0.8 µM, unit not given",baseline: vehicle,remaining binding,1.19
Cc1cc(NS(=O)(=O)c2ccc(NC(=O)/C(C#N)=C/c3ccc(N4CCCCC4)cc3)cc2)no1,HCT-116,"ELISA, refers to: Bcl2",,"IC50, 48 h, unit not given",baseline: untreated,protein level,0.21
C/C=C(/C)C(=O)O[C@H]1C(C)=C2[C@H]([C@@H]1OC(=O)CCCCCCC)[C@@](C)(OC(C)=O)C[C@H](OC(=O)CCC)[C@@]1(O)[C@H]2OC(=O)[C@@]1(C)O,HEK293,"western blot, refers to: ATF4",,"3 µM, 6 h, unit not given",baseline: mock,protein level,1.17 and 1.24 and 1.47
Cc1nn(-c2nc3ccc(Cl)c(Cl)c3[nH]2)c(O)c1C1OC(=O)c2ccccc21 (stereo not shown),RAW-ISG,CCK-8,,0.3 µM,,viability,103% and 111% and 98.2% and 108% and 102%
C[C@H]1[C@H](C)CC[C@]2(C(=O)O)CC[C@]3(C)C(=CC[C@@H]4[C@@]5(C)CC[C@H](O)C(C)(C)[C@@H]5CC[C@]43C)[C@H]12,3T3,"cell growth, MTT",,"25 µg/mL, 48 h",,cell survival,57.6 ± 0.84%
Cc1ccc2c(c1)C(=O)[C@]1(O)CCN(c3ccc4nc(C)ccc4c3)C1=N2,COS-7,cytokinesis,,48 h,,EC50,1.7 ± 0.1 µM
COc1cnc(OC)n2nc(NS(=O)(=O)c3c(OCC(F)F)cccc3C(F)(F)F)nc12,HEK293T,"cytotoxicity, CCK-8",,"50 µM, 72 h",,inhibition,0.27 ± 0.16%
COc1cc(Nc2ncc(F)c(Nc3ccc4c(n3)NC(=O)C(C)(C)O4)n2)cc(OC)c1OC,"Sodium-dependent serotonin transporter, 5-HT binding site (SLC6A4, Homo sapiens, UniProt P31645)",binding,,,,IC50,> 10 µM
Nc1ncc(-c2nc(N3CCOCC3)nc(N3CCOCC3)n2)c(C(F)F)n1,Hs-578T,,,72 h,,GI50,0.111 µM
Cn1cncc1C1=CN(c2ncnc3[nH]cnc23)CCS1,MDA-MB-435,,,melanoma cell line,,CC50,> 200 µM
COc1c(CCC[P+](c2ccccc2)(c2ccccc2)c2ccccc2)cc2c(c1OC)OCO2.[I-],UACC-62,SRB,,,,TGI,-5.26 log M
CCCCCCCCCCCCCC(=O)O[C@@H]1[C@@H](C)[C@@]2(O)[C@@H](C=C(CO)C[C@]3(O)C(=O)C(C)=C[C@@H]23)[C@@H]2C(C)(C)[C@]12OC(C)=O,HEL,flow cytometry,,concentration not given,baseline: cells,S phase cells,20.7% and 20.1% and 21.6%
Oc1ccc(C2(c3ccc(O)cc3)c3ccccc3-c3ccccc32)cc1,HepG2 spheroids,MTS,,"80 µM, 96 h",baseline: solvent control,viability,~35%
N.N.[Cl][Pt][Cl],SAS,annexin V/PI staining,,"50 µM, 24 h, mean",,apoptotic cells,42.5%
CC(C)[C@H](N)C(=O)N1CCC[C@H]1B(O)O,"Ker-CT keratinocytes, ASC knockout","inducer, ELISA",,concentration not given,,IL-1β release,1.52 pg/mL and 0 pg/mL
CN1CCN(S(=O)(=O)c2cc([N+](=O)[O-])ccc2N(CCOS(C)(=O)=O)CCOS(C)(=O)=O)CC1,HCT-116 overexpressing AKR1C1,"cell growth, sulforhodamine B",,96 h,,IC50,15.7 µM
CC(c1ccccc1)(c1ccc(O)cc1)c1ccc(O)cc1,HepG2 spheroids,Hoechst flow cytometry,,"1 µM, 96 h",,S phase cells,9.67 ± 0.98%
CN1CCN(C2(CNC3CCN(c4cccc(-c5cc6cc(F)ccc6[nH]5)c4)CC3)CCC2)CC1,786-0,,,,,CC50,6.89 µM
